Measurements from different studies.
Each numbered part is a random draw from the data of one study; scales do not carry over between parts.

Sample 1 — target: UBE2E1 UBC core domain (UniProt P51965); method: yeast two-hybrid; matrix: yeast; setting: mostly zero background; baseline: not given; reading: higher = stronger interaction
Chain of UniProt P51965 (whole entry, looked up): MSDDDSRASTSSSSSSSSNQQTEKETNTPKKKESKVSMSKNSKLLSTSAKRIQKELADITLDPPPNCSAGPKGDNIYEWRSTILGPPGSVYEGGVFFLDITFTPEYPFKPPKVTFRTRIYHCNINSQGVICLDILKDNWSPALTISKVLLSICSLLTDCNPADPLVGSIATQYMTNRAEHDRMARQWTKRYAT
B1: RNF133 RING domain (UniProt Q8WVZ7); chain DEEINPNGDSCVICFERYKPNDIVRILTCKHFFHKNCIDPWILPHGTCPICKCDILKVLGIQ
B2: MDM4 RING domain (UniProt O15151); chain MEDCQNLLKPCSLCEKRPRDGNIIHGRTGHLVTCFHCARRLKKAGASCPICKKEIQLVIKVF
B3: RFWD3 RING domain (UniProt Q6PCD5); chain ASMDEEEGDTCTICLEQWTNAGDHRLSALRCGHLFGYRCISTWLKGQVRKCPQCNKKARHSDIVV
`NLSELTPYILCSICKGYLIDATTITECLHTFCKSCIVRHFYYSNRCPKCNIVVHQTQPLY (PCGF6 RING domain (UniProt Q9BYE7))` — result for “lacZ reporter activity”: 0.
`AMYLQENGIDCPKCKFSYALARGGCMHFHCTQCRHQFCSGCYNAFYAKNKC (RNF31 RING domain (UniProt Q96EP0))` — result for “lacZ reporter activity”: 0.
Under “lacZ reporter activity”, `GSDDEEIPFKCFICRQSFQNPVVTKCRHYFCESCALQHFRTTPRCYVCDQQTNGVFNPA (RNF113A RING domain (UniProt O15541))` is recorded as 0.
`B1 (RNF133 RING domain)`: “lacZ reporter activity” 9140.
`B2 (MDM4 RING domain)` — result for “lacZ reporter activity”: 0.
`B3 (RFWD3 RING domain)` — result for “lacZ reporter activity”: 0.
For `PEDRESLKSACVVCLSSFKSCVFLECGHVCSCTECYRALPEPKKCPICRQAITRVIPLY (MUL1 RING domain (UniProt Q969V5))`, “lacZ reporter activity” read 12000.
For `YQNEVDDDLVCHICLQPLLQPLDTPCGHTFCYKCLRNFLQEKDFCPLDRKRLHFKLCKK (LNX2 RING domain (UniProt Q8N448))`, “lacZ reporter activity” read 0.

Sample 2 — method: protein-binding microarray; form: double-stranded DNA, one strand shown; matrix: in vitro; concentration: 940 nM top; setting: 60-bp whole probe; with: salmon DNA 0.4 mg/ml; baseline: random background probes; reading: higher = stronger binding; all sequences stand within: GCCTAGCAC … GTCTTGATTCGCTTGACGCTGCTG
Target: Interferon regulatory factor 5, full length, phosphomimetic (IRF5, Homo sapiens, UniProt Q13568-2, residues 1-514, S451D/S453D/S456D/S462D)
Under “fitted relative affinity”, `TAAGGACTGGGTATCGGTTAGTGCTAG` is recorded as 3.76 z-score.
`TGCGGTTCAGATATAGGATAGTGCTAG` — result for “fitted relative affinity”: -0.337 z-score.
`GACGGTTTCGGTTTCGGGATGTGCTAG`: “fitted relative affinity” 13.5 z-score.
For `TAAGGACTGGGTCTCGGTTAGTGCTAG`, “fitted relative affinity” read 1.68 z-score.
`TTGGTTTTCCTTATTGCTTCGTGCTAG` — result for “fitted relative affinity”: 1.88 z-score.
For `GACGGTTTCGGGACTGGGAACGTGCTA`, “fitted relative affinity” read 6.79 z-score.
`TGAGTGAAAGGCCCATACATGTGCTAG`: “fitted relative affinity” -0.373 z-score.
`TGCTTCCTAATTCTCTTTTCGTGCTAG`: “fitted relative affinity” 1.76 z-score.

Sample 3 — method: RNA Bind-n-Seq; form: RNA; matrix: in vitro; concentration: 365 nM; baseline: no-protein control; reading: higher = stronger binding
Target: RNA binding protein fox-1 homolog 2, RRM domain, GST-SBP tag (RBFOX2, Homo sapiens, UniProt O43251-10, residues 100-194)
Setting: natural RNA segment, single round, ends assumed
All sequences stand within: GGGAGUUCUACAGUCCGACGAUC … UGGAAUUCUCGGGUGCCAA
Residues (chain): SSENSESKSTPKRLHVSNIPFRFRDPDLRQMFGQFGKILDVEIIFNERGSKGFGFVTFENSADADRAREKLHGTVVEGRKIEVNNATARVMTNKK
For `UAGAACUAAAAUGCUCUCUGUACUCUAGUCUCCUGCCUCCUCAGCUCUGCAAGUAGUUUAGUAGGAAUGAAGUGGAAGUCCAGGCUUGGAUUGCCUAACUACACUGCUAA`, “RBNS enrichment (R)” read 2.2.
`UUCACAGGUACCCUCCCUCGGGCCCUUUUGAUUCUGGGAGUUAGGUUGUGUUUUAUGUUCUUAGAGGACAUAUUUUUGAUGAGGCCAAAACUGCUGUUCUGUUUCGUUGA` — result for “RBNS enrichment (R)”: 0.438.
For `GCAAUAUACAGCCCCAGGUAGGGAGGGGAGAGUAUGAGGAGGGUGACUGGCAGCUUCUCCUCCAGACUCCUAGCCCCGAGGUGCUGAUGGAGAUGCUCAAGGCCAGCAAG`, “RBNS enrichment (R)” read 0.65.
`GAUUCAUAUUGGAUCCCCAGGUAUACCUUCUGCUGGUAGCAUAUGGCUGGAAAAGGCCGUUUGCCUCACACAUUGUAACCUGCCUUGGCUAGAAAAUGCUUUUAAUGUCU`: “RBNS enrichment (R)” 0.269.
`CUGUGUAGGUAAAUUUCCGUGAAAUUUUUGUACAAAAAAAAAGGUAAUGAAAGAACGUUGCAAAGAUCAUCUGCAUUAUAAUGAGUUGAUGCUGUUCUCACUCCUCUCUU` — result for “RBNS enrichment (R)”: 0.757.
For `AUAUAAAGUUAAGUUAACAUACUAACAUUUCUCCUUUGGAGGAAGUUUUAAUCUACUUCAGGAUGCAUAUUAUUAUCAAGAUACUUUCAUAUACAGGAUAGCCUAAUUUU`, “RBNS enrichment (R)” read 0.354.
Under “RBNS enrichment (R)”, `GUUUUGGACAUCAAGCAUCCUAAUGGUACCUCCUUUGUACAAUGCCAAAAUGAGCCUCGGUGUCAGAGGAUACAACAAAAACAGCAAUUUUGAUGCCUUUGAAAUGAUGA` is recorded as 0.747.
`GCUCUGCCUCUGCAGUUGGCAGGUGUCCCAGAUUUGCUGUUGGACAGGGACCUUCUGCACUCCAUCCAUAAUAGCCUUUGGUACCUUCCAGAGGAGUCCUUCCCGAGAGC`: “RBNS enrichment (R)” 0.488.

Further values, each from its own experiment
`CCCC(=O)Nc1nc2ncc(Br)nc2s1` has a remaining compound of less than 1% (mouse, microsomes or S9; 2 µM, 0.5 h).

Some of these lines once more (sample 1):
`B2 (MDM4 RING domain)` — result for “lacZ reporter activity”: 0.
`B3 (RFWD3 RING domain)` — result for “lacZ reporter activity”: 0.
For `PEDRESLKSACVVCLSSFKSCVFLECGHVCSCTECYRALPEPKKCPICRQAITRVIPLY (MUL1 RING domain (UniProt Q969V5))`, “lacZ reporter activity” read 12000.
For `YQNEVDDDLVCHICLQPLLQPLDTPCGHTFCYKCLRNFLQEKDFCPLDRKRLHFKLCKK (LNX2 RING domain (UniProt Q8N448))`, “lacZ reporter activity” read 0.
